Experimental data from different studies.
Numbered parts are unrelated; each lists some results of a single study.

Block 1
Target: Sal-like protein 4, full length isoform A (SALL4, Homo sapiens, UniProt Q9UJQ4, residues 1-1053)
Sequence of UniProt Q9UJQ4 (whole entry, looked up): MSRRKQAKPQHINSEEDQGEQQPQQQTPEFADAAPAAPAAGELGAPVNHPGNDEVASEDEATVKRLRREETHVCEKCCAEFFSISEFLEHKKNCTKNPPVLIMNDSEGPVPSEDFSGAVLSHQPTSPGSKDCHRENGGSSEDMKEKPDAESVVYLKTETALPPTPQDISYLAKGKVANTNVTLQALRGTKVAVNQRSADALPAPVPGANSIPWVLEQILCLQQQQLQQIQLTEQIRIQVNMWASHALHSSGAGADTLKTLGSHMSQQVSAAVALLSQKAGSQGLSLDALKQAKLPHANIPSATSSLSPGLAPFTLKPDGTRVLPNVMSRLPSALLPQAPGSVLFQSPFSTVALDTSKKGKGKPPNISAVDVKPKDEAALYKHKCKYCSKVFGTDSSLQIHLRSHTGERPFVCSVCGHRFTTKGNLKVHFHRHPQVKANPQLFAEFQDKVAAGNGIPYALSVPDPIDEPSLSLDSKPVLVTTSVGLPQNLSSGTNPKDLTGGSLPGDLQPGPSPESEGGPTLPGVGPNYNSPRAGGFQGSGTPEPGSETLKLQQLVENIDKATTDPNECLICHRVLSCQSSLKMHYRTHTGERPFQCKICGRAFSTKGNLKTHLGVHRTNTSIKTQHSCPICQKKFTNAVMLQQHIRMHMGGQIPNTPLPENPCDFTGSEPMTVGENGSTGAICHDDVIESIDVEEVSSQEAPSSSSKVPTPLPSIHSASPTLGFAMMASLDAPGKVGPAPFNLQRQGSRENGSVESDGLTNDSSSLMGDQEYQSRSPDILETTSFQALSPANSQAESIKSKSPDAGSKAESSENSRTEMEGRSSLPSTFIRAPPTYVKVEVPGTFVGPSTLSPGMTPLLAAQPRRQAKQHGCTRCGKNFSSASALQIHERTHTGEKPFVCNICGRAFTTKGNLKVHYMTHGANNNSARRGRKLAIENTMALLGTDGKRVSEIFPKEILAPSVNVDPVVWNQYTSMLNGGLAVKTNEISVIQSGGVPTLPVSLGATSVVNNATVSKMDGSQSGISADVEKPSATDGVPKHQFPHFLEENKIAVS
Method: universal PBM
Molecule type: double-stranded DNA, one strand shown
Matrix: in vitro
Concentration: 600 nM
Notes: 8-mer, flanks averaged, mean of replicates
Direction: higher = stronger binding
| Oligonucleotide | E-score |
| --- | --- |
| AGTCCAAG | 0.0159 |
| AGAGGCCT | -0.207 |
| ATGGCGCG | -0.096 |
| ATCAAACA | 0.171 |
| ACGCCAGG | -0.213 |
| AAAGTTGA | 0.11 |
| CTATCGTA | 0.227 |

Block 2
Target: Interferon regulatory factor 5, full length, phosphomimetic (IRF5, Homo sapiens, UniProt Q13568-2, residues 1-514, K96S/S451D/S453D/S456D/S462D)
Method: protein-binding microarray
Molecule type: double-stranded DNA, one strand shown
Matrix: in vitro
Concentration: 250 nM
Notes: 60-bp whole probe
With: salmon DNA 0.4 mg/ml
Reference: random background probes
Direction: higher = stronger binding
Shared flanks, not repeated: GCCTAGCAC … GTCTTGATTCGCTTGACGCTGCTG
| Oligonucleotide | log fluorescence |
| --- | --- |
| TCAGGCCTCTTGCTCAGACTGTGCTAG | -0.688 z-score |
| AGACATTCTTTCAGTTGGAAGTGCTAG | 2.85 z-score |
| GTCCCTGAATGAAAACATCATGTGCTA | 0.547 z-score |
| GACGGAATCGACACTGGGGACGTGCTA | -0.159 z-score |
| TTAGAACTGGACACTGGGTTAGTGCTA | -0.488 z-score |
| TTAGAGCTCAGTATCGATTAGTGCTAG | 6.6 z-score |

Block 3
Target: Centromere-binding protein 1, full length, N-terminal tag (CBF1, Saccharomyces cerevisiae, UniProt P17106, residues 1-351)
Sequence of UniProt P17106 (whole entry, looked up): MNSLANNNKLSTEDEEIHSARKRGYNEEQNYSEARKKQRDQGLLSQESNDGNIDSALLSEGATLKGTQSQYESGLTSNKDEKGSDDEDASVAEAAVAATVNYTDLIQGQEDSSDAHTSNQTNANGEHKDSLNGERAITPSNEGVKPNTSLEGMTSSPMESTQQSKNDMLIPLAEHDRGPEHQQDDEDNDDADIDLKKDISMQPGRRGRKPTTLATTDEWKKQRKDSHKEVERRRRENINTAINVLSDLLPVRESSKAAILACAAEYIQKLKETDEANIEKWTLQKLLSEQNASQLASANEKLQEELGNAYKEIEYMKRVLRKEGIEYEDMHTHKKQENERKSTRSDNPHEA
Method: protein-binding microarray
Molecule type: double-stranded DNA, one strand shown
Matrix: in vitro
Concentration: 0.8 µM
Notes: whole 60-bp probe, no competitor
Direction: higher = stronger binding
| Oligonucleotide | fluorescence intensity |
| --- | --- |
| GAATGAAGAAAAAGGCTGATGGTCGACAAGAAATAGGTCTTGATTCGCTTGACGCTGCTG | 539 a.u. |
| CCTAACTACTATAATCACCTTTAATAGCTTCGTACAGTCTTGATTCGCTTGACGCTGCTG | 515 a.u. |
| CTATCAAATAGACGTCACCCCATCATCCCACATTTCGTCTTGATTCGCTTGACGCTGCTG | 567 a.u. |
| GAATTTTGCACGGTTTATCACATGGACAAAGGCTAGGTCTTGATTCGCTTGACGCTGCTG | 1440 a.u. |
| CTAGGAAAACGTATACACGTCACATATCACACATTCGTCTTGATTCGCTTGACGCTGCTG | 565 a.u. |
| CTATCGTGCCGTCATCACCATCGATTTGAATATTTCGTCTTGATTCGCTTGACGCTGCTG | 549 a.u. |
| CTATTAGAAAGTACAAACGTGTCAGCGTATTTATTCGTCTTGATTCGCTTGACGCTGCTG | 543 a.u. |
| CTATCTAATCTCGGTGACATCATTCCAAATGATTTCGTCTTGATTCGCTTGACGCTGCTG | 521 a.u. |

Single results of other studies
| Substance | target | test | test system | conditions | how to read | endpoint | value |
| --- | --- | --- | --- | --- | --- | --- | --- |
| PhoQ, residues 284 288 289 292 302 303 TLSLKA | PhoP, residues 12 14 15 18 19 LYHSL (Escherichia coli, UniProt P23836) | Sort-seq, measured: YFP reporter | E. coli | PhoQ-PhoP variant library, with: 10 µM Mg2+ | reference: high Mg2+ state, higher = stronger signaling | fold induction | 1 |

For quick reference, copied from above (block 1):
| Oligonucleotide | E-score |
| --- | --- |
| AAAGTTGA | 0.11 |
| CTATCGTA | 0.227 |
